# Published values pooled from the literature.
# Protocols differ between the studies behind these lines. Several values in a cell are separate wells, animals, samples, runs or records. Numbers after ± are the reported error.
Substance,target or system,test,test system,setting,scale,endpoint,value
Tunicamycin,HEK293,"western blot, item: ATF4",,"10 µg/mL, 6 h, unit not given",relative to: mock,protein level,1.13 and 1.25 and 1.91
BzATP,N2a,"fluorescence signal increase, stimulant, fluorescence plate reader",,300 µM,,time to maximum ΔF/F0,11 min
EESDDLYIPAFLRKQLD,DLD-1,"immunoblot, item: beta-catenin","peptide, cytosolic fraction",,relative to: non-transfected cells,degradation,> 50%
RTLEDLLMGT,HPV16 E7-specific T-cell line,ELISA,"peptide, supernatant","concentration not given, 24 h, added: peptide-pulsed autologous B cells",,IFN-γ release,338 pg/mL
lead,U87 glioblastoma,CCK-8,,"10 µM, 24 h, unit not given",relative to: untreated control,viability,0.53
cucurbitacin B,MP46 (BAP1-mutant uveal melanoma),"cell viability, CellTiter-Glo",,72 h,,IC50,51.1 nM
insulin human,,item: GLUD1 mRNA,"EcoHIV-infected mouse, brain","i.p., dose not given",relative to: PBS,fold change,1.2
Apelin,OVCAR-3,Transwell,,"concentration not given, 7 to 8 h",relative to: control,cell migration,2.5 fold
ciclosporin,"Jurkat, activated","IL-2 secretion, immunosuppressant",,,,IC50,0.065 nM
YMLDLQPEV,ASPC1 (HLA-A2− HPV−),111In release,peptide,"concentration not given, 16 h, E:T 25:1, IVS 5, added: peptide-generated T-cell line",,specific lysis,0.9%
C.I. Basic Violet 14,HepaRG,ROS-Glo luminescence,,,,maximal ROS response,-52.2 ± 76.9%
VSYVPMQGALTQ,B-NHL cells,"inhibitor, Western blot, item: RELB, NFκB2, IKKα, phospho-IKKα",peptide,"25 µM, 24 h",,protein level,no effect
abamectin,HepG2,RNA-seq and ChIP-seq,,"10 µM, 24 h",,regulated LRH-1 target genes,9.9%
YMLDLQPET,HPV16 E7-specific T-cell line,ELISA,"peptide, supernatant","concentration not given, 24 h, added: peptide-pulsed autologous B cells",,IFN-γ release,247 pg/mL
LPLKMLNIPSINVH,stimulated healthy donor PBMCs,"single-epitope tetramer staining, item: DRB1*01:01 tetramer",peptide,concentration not given,relative to: CD4 T cells,antigen-specific CD4 T cells,0.54%
KISEYRHYV,HPV16 E6-specific T-cell line,ELISA,"peptide, supernatant","concentration not given, 24 h, added: peptide-pulsed autologous B cells",,IFN-γ release,172 pg/mL
SFLLRNPNDKYEPF,BPAEC,fura-2,peptide,10 µM,relative to: basal,cytosolic Ca2+ increase,7 fold
SATSFPPSYESVARG,human DRG neurons,,"peptide, human","10 µM, 24 h",relative to: scrambled peptide,NaV1.8 immunoreactivity,decreased
KLPQLCTEL,HN-30 (HLA-A2− HPV+),111In release,peptide,"concentration not given, 16 h, E:T 25:1 IVS 5, added: peptide-generated T-cell line",,specific lysis,3%
CLDPVDTPNPTR,RAW264.7,Western blot,peptide,"concentration not given, 6 h pretreatment, added: LPS 30 min",,p-p38/p38 ratio,0.44 ± 0.11
KLPQLCTEV,HPV16 E6-specific T-cell line,ELISA,"peptide, supernatant","concentration not given, 24 h, added: peptide-pulsed autologous B cells",,IFN-γ release,699 pg/mL
CEMDGQCKRDLKCCMGMCGKSCVSPVKA,RAW264.7,Western blot,peptide,"concentration not given, 6 h pretreatment, added: LPS 30 min",,p-ERK/ERK ratio,0.57 ± 0.05
KISEYRHYC,ASPC1 (HLA-A2− HPV−),111In release,peptide,"concentration not given, 16 h, E:T 25:1, IVS 5, added: peptide-generated T-cell line",,specific lysis,-1.1% and 0.5%
LHKLLHHLLHHLHKLLHHLHHLLHKLC,human red blood cells,hemolysis,peptide,"1 h, pH 5.5",relative to: Triton X-100,EC50,31000 nM

# Repeated from above:
Substance,target or system,test,test system,setting,scale,endpoint,value
KISEYRHYV,HPV16 E6-specific T-cell line,ELISA,"peptide, supernatant","concentration not given, 24 h, added: peptide-pulsed autologous B cells",,IFN-γ release,172 pg/mL
KISEYRHYC,ASPC1 (HLA-A2− HPV−),111In release,peptide,"concentration not given, 16 h, E:T 25:1, IVS 5, added: peptide-generated T-cell line",,specific lysis,-1.1% and 0.5%
